Measured values of several laboratories.
Each line is one published result; not all experiments were run side by side. ± marks the error that the study gave.

SMILES | cell line | test | test system | conditions | how to read | quantity | value
NCCCC[C@H](NC(=O)[C@H](CCCCN)NC(=O)[C@H](Cc1ccccc1)NC(=O)[C@H](Cc1ccccc1)NC(=O)CCCc1ccc2ccc3cccc4ccc1c2c34)C(N)=O | NIH/3T3 | MTT | – | concentration not given, 24 h, normoxia | – | cytotoxicity | not toxic
CC[C@H](C)[C@H](NC(=O)[C@H](CCCCN)NC(=O)[C@H](CCCCN)NC(=O)[C@H](Cc1ccccc1)NC(=O)[C@H](CC(C)C)NC(=O)[C@H](CCCCN)NC(=O)[C@H](Cc1c[nH]c2ccccc12)NC(=O)[C@@H](CCCCN)NC(C)=O)C(=O)NCC(=O)N[C@@H](C)C(=O)N[C@H](C(=O)N[C@@H](CC(C)C)C(=O)N[C@H](CCCCN)C(=O)N[C@H](C(=O)N[C@@H](CC(C)C)C(N)=O)C(C)C)C(C)C | RAW264.7 | MTT | – | up to 32 µM | – | viability decrease | ~80%
CN(C)c1ccc(C=Nn2c(-c3ccccc3)nc3ccccc3c2=O)cc1 | MDCK | cell morphology, microscopy | – | – | – | minimum cytotoxic concentration | 100 µg/mL
COC(=O)C1CN1S(=O)(=O)c1ccc(C(C)C)cc1 (stereo not drawn) | Balb/c 3T3 fibroblasts | cytotoxicity, neutral red uptake | DMEM with 5% FBS | 24 h | – | IC50 | 487 ± 14 µM
Cc1ncsc1-c1ccc([C@H](C)NC(=O)[C@@H]2C[C@@H](O)CN2C(=O)[C@@H](NC(=O)CN2CCC(CN3CCN(CCC(=O)N4CCN(c5ncc(-c6cc(NC(=O)c7ccc(F)cc7C(F)(F)F)c(N7C[C@@H](C)N(C)[C@@H](C)C7)cc6F)cn5)CC4)CC3)CC2)C(C)(C)C)cc1 | Sf9 | LC-MS | – | 10 µM, 24 h | reference: total recovery | cellular fraction of compound | 14%
CC(=O)N(O)CCCP(=O)(O)O | mouse lymphoma L5178Y TK+/- 3.7.2C | TK locus mutation | – | 125 µg/mL, 4 h, without S9 | reference: negative control | mean mutant frequency | 130%
Nc1ncnc2c1c(Cl)cn2[C@@H]1O[C@H](CO)[C@@H](O)[C@H]1O | MRC-5 SV2 | cytotoxicity, resazurin | medium with 5% FBS | 72 h | – | EC50 | 13 ± 6 µM
CCCCn1cc(C(=O)O)c(=O)c2cc(F)c(Nc3cccc(Cl)c3)c([N+](=O)[O-])c21 | T47D | cell growth, SRB | – | 72 h | – | IC50 | 17.6 ± 1.43 µg/mL
C(#Cc1cncc(OC[C@@H]2CCN2)c1)c1ccccc1 | Caco-2 | Caco-2 permeability | – | 100 µM, 2 h, pH 7.4, added: MK-571 100 µM | – | Papp B to A | 26.9 ± 0.32 ×10⁻⁶ cm/s
Cc1nc2n(n1)C(C)(O)C([N+](=O)[O-])=NN2 (stereo not drawn) | MDCK | MTT | – | 48 (unit not given) | – | highest non-toxic concentration | > 300 µg/mL
CCCCn1cc(C(=O)O)c(=O)c2cc(F)c(Nc3ccccc3Cl)c(N)c21 | T47D | cell growth, SRB | – | 72 h | – | IC50 | 4.4 ± 0.9 µg/mL
CC[C@H](C)[C@H](NC(=O)[C@H](CCCCN)NC(=O)[C@H](C)NC(=O)[C@H](CCCNC(=N)N)NC(=O)[C@H](CCCCN)NC(=O)[C@H](CC(N)=O)NC(=O)[C@H](CCC(N)=O)NC(=O)[C@H](Cc1ccccc1)NC(=O)[C@H](Cc1c[nH]c2ccccc12)NC(=O)[C@@H](NC(=O)[C@H](CCCCN)NC(=O)[C@@H](NC(=O)[C@H](CCC(N)=O)NC(=O)[C@H](CO)NC(=O)[C@H](CCCNC(=N)N)NC(=O)[C@@H]1CCCN1C(=O)[C@H](CCCNC(=N)N)NC(=O)[C@H](CCCCN)NC(=O)[C@H](CC(=O)O)NC(=O)[C@H](CCC(=O)O)NC(=O)[C@H](CCCCN)NC(=O)[C@H](CC(N)=O)NC(=O)[C@@H]1CCCN1C(=O)[C@H](CC(N)=O)NC(=O)[C@H](CCCCN)NC(=O)[C@H](CCCCN)NC(=O)[C@H](CCCCN)NC(=O)[C@@H]1CCCN1C(=O)[C@H](CCCCN)NC(=O)[C@H](CCCNC(=N)N)NC(=O)[C@H](CO)NC(=O)[C@H](CCCNC(=N)N)NC(=O)CNC(=O)CNC(=O)CNC(=O)CNC(=O)CNC(=O)CCCC[C@@H]1SC[C@@H]2NC(=O)N[C@@H]21)[C@@H](C)CC)[C@@H](C)CC)C(=O)N[C@@H](CCCCN)C(=O)N[C@@H](CCCCN)C(N)=O | Caov-3 | MALDI-TOF MS | – | 7 µM, 1 h, 37 °C | reference: Caov-3 over CHO-K1 | cellular uptake ratio | 2 fold
NC(=S)N/N=C/c1ccc(OCc2ccccc2)cc1 | IMR-32 | MTT | – | concentration not given | – | cytotoxicity | not toxic
CC1(C)C=Cc2c(ccc3c(=O)cc(-c4ccccc4)oc23)O1 | differentiated SH-SY5Y | MTT | – | 1 µM | reference: control | viability | 97.4 ± 3.5%
NC(=O)C1CN1S(=O)(=O)c1ccccc1 (stereo not drawn) | Balb/c 3T3 fibroblasts | cytotoxicity, neutral red uptake | DMEM with 5% FBS | 24 h | – | IC50 | 56 ± 8 µM
CCCCn1cc(C(=O)O)c(=O)c2cc(F)c(Nc3ccccc3Cl)c([N+](=O)[O-])c21 | K562 | cell growth, SRB | – | 72 h | – | IC50 | 91 ± 5.7 µg/mL
CC1(C)C=Cc2c(cc3oc(-c4ccccc4)cc(=O)c3c2O)O1 | differentiated SH-SY5Y | MTT | – | 0.1 µM | reference: control | viability | 103 ± 3.6%
CCCCn1cc(C(=O)O)c(=O)c2cc(F)c3c(nnn3-c3ccccc3Cl)c21 | PANC-1 | cell growth, SRB | – | 72 h | – | IC50 | 15.6 ± 1.41 µg/mL
CCc1nc2cc3ccccc3cc2cc1C(=O)N1CCC[C@H]1C(=O)N[C@@H](C/C=C\C[C@H](NC(=O)[C@@H]1CCCN1C(=O)c1cc2cc3ccccc3cc2nc1CC)C(=O)N[C@@H](CCCCN)C(=O)NCCCN)C(=O)N[C@@H](CCCCN)C(=O)NCCCN | C2C12 mouse myoblasts | MTT | – | up to 100 µM, 48 h | – | cytotoxicity | not toxic
COc1c(C(=O)/C=C(\O)c2ccccc2)ccc2c1C=CC(C)(C)O2 | differentiated SH-SY5Y | MTT | – | 100 µM | reference: control | viability | 82.3 ± 2.5%
CCCCn1cc(C(=O)O)c(=O)c2cc(F)c(Nc3cccc(Cl)c3)c(N)c21 | PANC-1 | cell growth, SRB | – | 72 h | – | IC50 | 2.3 ± 0.07 µg/mL
COc1ccc2c(=O)c(OC)c(-c3ccc(OC)c(OC)c3)oc2c1 | differentiated SH-SY5Y | MTT | – | 1 µM | reference: control | viability | 102 ± 4.1%
CC(C)[C@H](NC(=O)[C@H]1NC(=O)[C@H](CO)NC(=O)[C@H](CC(N)=O)NC(=O)[C@@H](N)Cc2c[nH]c3cc(ccc23)C1C(N)=O)C(=O)N[C@H]1Cc2cn(cn2)C(c2ccc(O)cc2)[C@@H](C(=O)N[C@@H](CCCNC(=N)N)C(=O)N[C@@H](Cc2ccccc2)C(=O)O)NC(=O)[C@H](CO)NC1=O (stereo partly drawn) | four human cell lines | – | – | up to 1 mg/mL | – | cytotoxicity | not toxic
CC(C)(O)c1cc2c(ccc3c(=O)cc(-c4ccccc4)oc32)o1 | differentiated SH-SY5Y | MTT | – | 10 µM | reference: control | viability | 99.2 ± 4.1%
COc1cc(C2C3C4=[N+](CCc5cc(O)c(OC)cc54)C(c4c3ccc(OC)c4OC)C2C(=O)[O-])ccc1O (single isomer, unassigned; (-)) | HEK293T-ACE2 | – | – | – | – | maximum nontoxic concentration | 100 µM
CC(=O)N[C@H](C(=O)NCCCCCC(=O)NCC(=O)N[C@@H](Cc1c[nH]cn1)C(=O)N[C@@H](Cc1c[nH]cn1)C(=O)N1CCC[C@H]1C(=O)N[C@@H](Cc1c[nH]cn1)C(=O)NCC(=O)N[C@@H](Cc1c[nH]cn1)C(=O)N[C@@H](Cc1c[nH]cn1)C(=O)N1CCC[C@H]1C(=O)N[C@@H](Cc1c[nH]cn1)C(N)=O)C(C)(C)SSCCNC(=O)[C@H](Cc1c[nH]c2ccccc12)NC(=O)[C@H](CCCNC(=N)N)NC(=O)[C@H](Cc1c[nH]c2ccccc12)NC(=O)[C@H](CCCNC(=N)N)NC(=O)[C@H](Cc1c[nH]c2ccccc12)NC(=O)[C@@H](N)CCCNC(=N)N | DU-145, DTNB-pretreated | MTT | – | concentration not given, 24 h, Zn2+-activated | – | cytotoxicity | inactive
COC1(c2ccccc2)CC(=O)c2c(cc3c(c2O)C=CC(C)(C)O3)O1 (stereo not drawn) | differentiated SH-SY5Y | MTT | – | 10 µM | reference: control | viability | 99.7 ± 3.5%
COC(=O)[C@H](CO)NC(=O)[C@H](CCCCN(CC(C)C)C1CC2CCC1C2)NC(=O)[C@H](CCCN1CCOCC1)NC(=O)[C@H](NC(=O)[C@H](Cc1ccccc1)NC(=O)c1ccc(C(C)(C)C)cc1)C1CCC1 (stereo partly drawn) | mouse embryonic stem cells | cytotoxicity, CellTiter-Glo | – | 48 h | – | DC50 | 6 ± 1.4 µM
CC(=O)N[C@@H](CO)C(=O)N[C@@H](CC(=O)O)C(=O)N[C@@H](CCCCNC(=O)CCCC[C@@H]1SC[C@@H]2NC(=O)N[C@@H]21)C(=O)N1CCC[C@H]1C(=O)O | A549 | flow cytometry | – | 40 µg/mL, 0 min, 37 °C | reference: cells | cellular uptake | 0%
C[C@H](NC(=O)[C@H](CCCNC(=N)N)NC(=O)[C@H](CCC(=O)O)NC(=O)[C@H](CCCNC(=N)N)NC(=O)[C@H](CCCNC(=N)N)NC(=O)[C@@H](NC(=O)[C@H](CCCNC(=N)N)NC(=O)[C@H](C)NC(=O)[C@H](CCCNC(=N)N)NC(=O)[C@H](CCC(=O)O)NC(=O)[C@@H](N)CCCNC(=N)N)[C@@H](C)O)C(=O)N[C@@H](CCCNC(=N)N)C(=O)N[C@H](C(=O)N[C@@H](CCCNC(=N)N)C(=O)N[C@@H](CCC(=O)O)C(=O)N[C@@H](CCCNC(=N)N)C(=O)N[C@@H](C)C(=O)N[C@@H](CCCNC(=N)N)C(=O)N[C@H](C(=O)N[C@@H](CCCNC(=N)N)C(=O)O)[C@@H](C)O)[C@@H](C)O | A-375 | MTT | – | up to 100 µM, 24 h | – | cytotoxicity | not toxic

Some of these lines once more:
SMILES | cell line | test | test system | conditions | how to read | quantity | value
NC(=S)N/N=C/c1ccc(OCc2ccccc2)cc1 | IMR-32 | MTT | – | concentration not given | – | cytotoxicity | not toxic
CCCCn1cc(C(=O)O)c(=O)c2cc(F)c3c(nnn3-c3ccccc3Cl)c21 | PANC-1 | cell growth, SRB | – | 72 h | – | IC50 | 15.6 ± 1.41 µg/mL
CC(C)[C@H](NC(=O)[C@H]1NC(=O)[C@H](CO)NC(=O)[C@H](CC(N)=O)NC(=O)[C@@H](N)Cc2c[nH]c3cc(ccc23)C1C(N)=O)C(=O)N[C@H]1Cc2cn(cn2)C(c2ccc(O)cc2)[C@@H](C(=O)N[C@@H](CCCNC(=N)N)C(=O)N[C@@H](Cc2ccccc2)C(=O)O)NC(=O)[C@H](CO)NC1=O (stereo partly drawn) | four human cell lines | – | – | up to 1 mg/mL | – | cytotoxicity | not toxic
CC1(C)C=Cc2c(cc3oc(-c4ccccc4)cc(=O)c3c2O)O1 | differentiated SH-SY5Y | MTT | – | 0.1 µM | reference: control | viability | 103 ± 3.6%
